# Published values of several laboratories.
# Each line is one published result; not all experiments were run side by side. “And” joins repeats or separate records; there may be more than shown. ± gives the spread as reported.
Compound,tested on,assay,test system,setting,how to read,quantity,result
CC(C)C[C@H](CN)CC(=O)O,,whole-cell current clamp,"DRG neurons, rat, spinal cord injury","10 µM, overnight, added: nimodipine 5 µM",,action potential threshold,-37.3 mV and -39.2 mV and -36.5 mV and -33.4 mV and -36 mV and -33.6 mV
C=CCNCCc1c[nH]c2cccc(O)c12.C=CCNCCc1c[nH]c2cccc(O)c12.O=C(O)/C=C/C(=O)O,,,C57BL/6J mice,"subcutaneous, 0.3 mg/kg",relative to: pre-session baseline,body temperature change,-0.2 ± 0.1 °C
C[C@]12CC[C@H]3[C@@H](CC=C4CC(O)CC[C@@]43CO)[C@@H]1CCC2O (some centres unmarked),,,GAN diet MASH rats,"ip, 20 mg/kg, two weeks",relative to: GAN vehicle,plasma AST level,decreased
Cl.N#Cc1ccc(C(=O)N[C@H]2CC[C@@]3(O)[C@H]4Cc5ccc(O)c6c5[C@@]3(CCN4CC3CC3)[C@H]2O6)s1,,"antagonist, warm-water tail immersion",Swiss Webster mouse,"subcutaneous, added: morphine 10 mg/kg s.c.",,AD50,8.18 mg/kg
Cc1nc(-c2ccc(OCC(C)C)c(C#N)c2)sc1C(=O)O,human coronavirus OC43,virus-induced cell killing,MRC-5,maximum over 10 doses,,maximum inhibition,0%
C=CCN1CC[C@]23c4c5ccc(O)c4O[C@H]2C(=O)CC[C@@]3(O)[C@H]1C5,,formalin test,male ICR-CD1 mice,"sc, 5 mg/kg, 15 to 30 min",,paw licking time,76 s and 112 s and 93 s
CC(C)NCCc1c[nH]c2cccc(O)c12.O=C(O)/C=C/C(=O)O,,,C57BL/6J mice,"subcutaneous, 10 mg/kg",relative to: pre-session baseline,body temperature change,-0.2 ± 0.2 °C
N[C@H](C(=O)O)[C@@H]1CC(Cl)=NO1,human coronavirus OC43,virus-induced cell killing,MRC-5,screen,,maximum inhibition,10.9%
C#CCN(C)[C@H](C)Cc1ccccc1,,footprint test,MPTP-induced Parkinson's disease mouse model,10 mg/kg,,stride length,6.15 cm and 6.36 cm and 6.45 cm and 5.73 cm and 5.95 cm and 4.74 cm and 4.83 cm and 7.31 cm
CC(C)(C)NCCc1c[nH]c2cccc(O)c12.CC(C)(C)NCCc1c[nH]c2cccc(O)c12.O=C(O)/C=C/C(=O)O,,,C57BL/6J mice,"subcutaneous, 3 mg/kg",relative to: pre-session baseline,body temperature change,0 ± 0.1 °C
Cc1ncc2n1-c1ccc(Cl)cc1C(c1ccccc1F)=NC2,,"self-administration, progressive-ratio schedule",rhesus monkey,intravenous,,Emax,103%
COc1ccc2[nH]cc(CCN(C)C)c2c1,,DOM stimulus generalization,rat trained on DOM,"intraperitoneal, 15 min pretreatment, training dose 1.0 mg/kg DOM",,ED50,0.86 mg/kg
O=C(O)/C=C/C(=O)O.Oc1cccc2[nH]cc(CCNC3CCCCC3)c12,,,C57BL/6J mice,"subcutaneous, 10 mg/kg",relative to: pre-session baseline,body temperature change,-0.3 ± 0.1 °C
CN1CC[C@]23c4c5ccc(O)c4O[C@H]2[C@@H](OS(=O)(=O)O)C=C[C@H]3[C@H]1C5,,"antinociception, hot-water tail withdrawal",STZ-diabetic Sprague-Dawley rats,intraperitoneal,,ED50,0.35 mg/kg
COC(=O)[C@H]1[C@@H](OC(=O)c2ccccc2)C[C@@H]2CC[C@H]1N2C,,self-administration,male Sprague-Dawley rat,intravenous,,dose with highest response rate,0.32 mg/kg/injection
CN1CC[C@]23c4c5ccc(O)c4O[C@H]2[C@@H](O)C=C[C@H]3[C@H]1C5,,"antinociception, hot-water tail withdrawal",STZ-diabetic Sprague-Dawley rats,intraperitoneal,,ED50,6.47 mg/kg
CCNCCc1c[nH]c2cccc(O)c12.CCNCCc1c[nH]c2cccc(O)c12.O=C(O)CCC(=O)O,,,C57BL/6J mice,"subcutaneous, 30 mg/kg",relative to: pre-session,body temperature change,-5.4 ± 0.5 °C

# Repeated from above:
Compound,tested on,assay,test system,setting,how to read,quantity,result
CN1CC[C@]23c4c5ccc(O)c4O[C@H]2[C@@H](O)C=C[C@H]3[C@H]1C5,,"antinociception, hot-water tail withdrawal",STZ-diabetic Sprague-Dawley rats,intraperitoneal,,ED50,6.47 mg/kg
CCNCCc1c[nH]c2cccc(O)c12.CCNCCc1c[nH]c2cccc(O)c12.O=C(O)CCC(=O)O,,,C57BL/6J mice,"subcutaneous, 30 mg/kg",relative to: pre-session,body temperature change,-5.4 ± 0.5 °C
